Results of several laboratories.
Parts stem from different laboratories: compare values within a part only. Substitutions count along the parent as printed.
Sequence of UniProt P41595 (whole entry, looked up): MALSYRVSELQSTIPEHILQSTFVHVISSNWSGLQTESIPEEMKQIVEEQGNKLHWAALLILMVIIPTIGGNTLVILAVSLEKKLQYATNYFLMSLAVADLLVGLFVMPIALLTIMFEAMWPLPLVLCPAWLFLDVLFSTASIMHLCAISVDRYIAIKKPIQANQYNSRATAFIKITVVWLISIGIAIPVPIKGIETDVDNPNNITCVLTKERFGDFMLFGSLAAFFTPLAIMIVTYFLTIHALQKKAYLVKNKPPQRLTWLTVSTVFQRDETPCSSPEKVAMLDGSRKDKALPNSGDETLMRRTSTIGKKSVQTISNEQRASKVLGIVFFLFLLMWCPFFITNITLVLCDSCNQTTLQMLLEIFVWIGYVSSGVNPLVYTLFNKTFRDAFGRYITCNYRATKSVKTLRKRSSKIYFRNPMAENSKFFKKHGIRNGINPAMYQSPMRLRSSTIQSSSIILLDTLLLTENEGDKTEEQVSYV
Sequence of UniProt Q16832 (whole entry, looked up): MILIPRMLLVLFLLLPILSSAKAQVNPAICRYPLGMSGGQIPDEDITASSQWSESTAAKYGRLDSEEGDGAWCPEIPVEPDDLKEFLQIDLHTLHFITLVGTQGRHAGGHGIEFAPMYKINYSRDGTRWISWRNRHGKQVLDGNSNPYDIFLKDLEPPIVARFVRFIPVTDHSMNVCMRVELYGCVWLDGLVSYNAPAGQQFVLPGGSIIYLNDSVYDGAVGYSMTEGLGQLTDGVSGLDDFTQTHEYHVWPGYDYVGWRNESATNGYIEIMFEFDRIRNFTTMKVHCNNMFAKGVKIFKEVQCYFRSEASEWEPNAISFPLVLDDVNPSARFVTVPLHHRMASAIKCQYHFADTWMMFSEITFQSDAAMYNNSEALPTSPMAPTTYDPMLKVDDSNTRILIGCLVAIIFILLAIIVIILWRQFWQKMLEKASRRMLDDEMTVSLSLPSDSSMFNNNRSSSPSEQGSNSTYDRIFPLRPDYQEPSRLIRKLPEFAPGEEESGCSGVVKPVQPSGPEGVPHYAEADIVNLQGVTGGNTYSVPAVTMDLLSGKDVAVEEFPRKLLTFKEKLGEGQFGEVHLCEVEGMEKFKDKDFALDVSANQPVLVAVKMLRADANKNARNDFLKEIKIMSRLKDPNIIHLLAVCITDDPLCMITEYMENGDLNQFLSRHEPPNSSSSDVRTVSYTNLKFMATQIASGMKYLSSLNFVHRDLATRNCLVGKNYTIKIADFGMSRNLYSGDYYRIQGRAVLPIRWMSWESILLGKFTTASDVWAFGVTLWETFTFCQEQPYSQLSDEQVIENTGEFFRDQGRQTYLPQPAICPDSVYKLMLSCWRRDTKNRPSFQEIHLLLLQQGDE
Sequence of UniProt P50750 (whole entry, looked up): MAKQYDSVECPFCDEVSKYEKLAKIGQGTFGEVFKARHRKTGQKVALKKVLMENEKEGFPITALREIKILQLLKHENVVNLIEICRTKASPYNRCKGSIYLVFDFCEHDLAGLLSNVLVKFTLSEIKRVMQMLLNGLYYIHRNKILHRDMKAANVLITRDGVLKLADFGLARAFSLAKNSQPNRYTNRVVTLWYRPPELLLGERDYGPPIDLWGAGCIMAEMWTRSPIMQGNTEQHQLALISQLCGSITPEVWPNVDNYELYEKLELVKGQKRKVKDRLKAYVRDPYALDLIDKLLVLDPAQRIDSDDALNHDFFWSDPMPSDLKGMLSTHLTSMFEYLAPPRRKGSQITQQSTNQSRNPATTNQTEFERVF
Sequence of UniProt Q8N568 (whole entry, looked up): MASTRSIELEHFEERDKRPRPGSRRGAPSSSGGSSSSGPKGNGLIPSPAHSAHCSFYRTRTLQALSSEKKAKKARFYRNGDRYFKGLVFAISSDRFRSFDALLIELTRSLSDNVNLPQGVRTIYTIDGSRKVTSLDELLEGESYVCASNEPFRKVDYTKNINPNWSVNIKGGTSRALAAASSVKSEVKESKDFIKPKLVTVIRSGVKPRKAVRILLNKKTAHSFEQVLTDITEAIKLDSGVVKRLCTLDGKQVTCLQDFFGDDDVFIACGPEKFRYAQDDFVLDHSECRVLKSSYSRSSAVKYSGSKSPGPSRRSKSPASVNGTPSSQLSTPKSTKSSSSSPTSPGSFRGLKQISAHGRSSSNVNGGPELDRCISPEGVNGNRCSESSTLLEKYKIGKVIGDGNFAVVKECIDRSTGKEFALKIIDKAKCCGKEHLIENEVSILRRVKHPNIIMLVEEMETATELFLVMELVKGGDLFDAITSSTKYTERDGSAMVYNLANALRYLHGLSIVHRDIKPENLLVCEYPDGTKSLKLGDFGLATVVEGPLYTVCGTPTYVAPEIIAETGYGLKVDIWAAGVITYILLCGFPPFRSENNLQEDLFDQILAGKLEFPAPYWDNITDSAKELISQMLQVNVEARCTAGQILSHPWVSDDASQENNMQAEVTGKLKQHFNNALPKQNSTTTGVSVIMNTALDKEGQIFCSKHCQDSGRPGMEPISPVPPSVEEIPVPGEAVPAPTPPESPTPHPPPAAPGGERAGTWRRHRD
Sequence of UniProt Q8N4C8 (whole entry, looked up): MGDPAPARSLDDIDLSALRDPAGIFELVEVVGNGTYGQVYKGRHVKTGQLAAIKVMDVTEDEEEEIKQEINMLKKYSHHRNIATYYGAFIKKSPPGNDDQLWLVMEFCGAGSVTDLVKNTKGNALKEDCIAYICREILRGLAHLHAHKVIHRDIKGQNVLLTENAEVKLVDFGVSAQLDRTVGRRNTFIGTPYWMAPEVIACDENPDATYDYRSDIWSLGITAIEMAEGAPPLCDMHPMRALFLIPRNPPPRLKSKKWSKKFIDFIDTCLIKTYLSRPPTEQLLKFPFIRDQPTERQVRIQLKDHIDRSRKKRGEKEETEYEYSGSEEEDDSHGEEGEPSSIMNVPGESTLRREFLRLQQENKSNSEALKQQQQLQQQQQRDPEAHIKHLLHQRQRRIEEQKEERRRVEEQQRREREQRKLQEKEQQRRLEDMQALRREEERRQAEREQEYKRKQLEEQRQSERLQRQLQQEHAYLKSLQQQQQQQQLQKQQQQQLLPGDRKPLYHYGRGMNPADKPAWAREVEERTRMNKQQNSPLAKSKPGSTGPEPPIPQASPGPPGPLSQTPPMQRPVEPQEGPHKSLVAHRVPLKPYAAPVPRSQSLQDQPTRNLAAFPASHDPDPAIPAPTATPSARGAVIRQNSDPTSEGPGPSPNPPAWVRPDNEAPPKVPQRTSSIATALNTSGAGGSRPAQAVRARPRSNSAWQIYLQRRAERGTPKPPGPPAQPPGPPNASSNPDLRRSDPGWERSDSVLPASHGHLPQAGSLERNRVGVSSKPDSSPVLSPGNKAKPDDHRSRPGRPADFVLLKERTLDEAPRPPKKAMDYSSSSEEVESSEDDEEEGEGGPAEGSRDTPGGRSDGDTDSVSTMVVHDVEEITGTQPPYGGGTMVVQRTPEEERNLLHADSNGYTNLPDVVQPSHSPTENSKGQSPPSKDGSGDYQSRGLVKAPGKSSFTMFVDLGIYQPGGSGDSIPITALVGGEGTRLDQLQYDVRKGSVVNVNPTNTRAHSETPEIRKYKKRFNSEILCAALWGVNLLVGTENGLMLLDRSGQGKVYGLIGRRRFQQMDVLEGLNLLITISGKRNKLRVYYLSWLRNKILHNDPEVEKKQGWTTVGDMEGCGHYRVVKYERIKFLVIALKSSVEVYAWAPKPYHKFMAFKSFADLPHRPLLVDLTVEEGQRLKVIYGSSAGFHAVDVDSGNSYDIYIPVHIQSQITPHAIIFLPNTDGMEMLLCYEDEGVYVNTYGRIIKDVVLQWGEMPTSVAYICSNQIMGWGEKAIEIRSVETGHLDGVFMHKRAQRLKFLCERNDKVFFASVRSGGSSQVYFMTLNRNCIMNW

Block 1
Target: OGT, full length, His-tagged (human)
Method: phage display, sequencing
Medium: in vitro
Tested at: 1 µg OGT
Notes: single substitutions, 15-mer displayed peptide, unchanged parent 6.14
Baseline: input library
Reading: higher = stronger binding
Starting sequence: peptide; VAYPNSYMPKYQIST; partner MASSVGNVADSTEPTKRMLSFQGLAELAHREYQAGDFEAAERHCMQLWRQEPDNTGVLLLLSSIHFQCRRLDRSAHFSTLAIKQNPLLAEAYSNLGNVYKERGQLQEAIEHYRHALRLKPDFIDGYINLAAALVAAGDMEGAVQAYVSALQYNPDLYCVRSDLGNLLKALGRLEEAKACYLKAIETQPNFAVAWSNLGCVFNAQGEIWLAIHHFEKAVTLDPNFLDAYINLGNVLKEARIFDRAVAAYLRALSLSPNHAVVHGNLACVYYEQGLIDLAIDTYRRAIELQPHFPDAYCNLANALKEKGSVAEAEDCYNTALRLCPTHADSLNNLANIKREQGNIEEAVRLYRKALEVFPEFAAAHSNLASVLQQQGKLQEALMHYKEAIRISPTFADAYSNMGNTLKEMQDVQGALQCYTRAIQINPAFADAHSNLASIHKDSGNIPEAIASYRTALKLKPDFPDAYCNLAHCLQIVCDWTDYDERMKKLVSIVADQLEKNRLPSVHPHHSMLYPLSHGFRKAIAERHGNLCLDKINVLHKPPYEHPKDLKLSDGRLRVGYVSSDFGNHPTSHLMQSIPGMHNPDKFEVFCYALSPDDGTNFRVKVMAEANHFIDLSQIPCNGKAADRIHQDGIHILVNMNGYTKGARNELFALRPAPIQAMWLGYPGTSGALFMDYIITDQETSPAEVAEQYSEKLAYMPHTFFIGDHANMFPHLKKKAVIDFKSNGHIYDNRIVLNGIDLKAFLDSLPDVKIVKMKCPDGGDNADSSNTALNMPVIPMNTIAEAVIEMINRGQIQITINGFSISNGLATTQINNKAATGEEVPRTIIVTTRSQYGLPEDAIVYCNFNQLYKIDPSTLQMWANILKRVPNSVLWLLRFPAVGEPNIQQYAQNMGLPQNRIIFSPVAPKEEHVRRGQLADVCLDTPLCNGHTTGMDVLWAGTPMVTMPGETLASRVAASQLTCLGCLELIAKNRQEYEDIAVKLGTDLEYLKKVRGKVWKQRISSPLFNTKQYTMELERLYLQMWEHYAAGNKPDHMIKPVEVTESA
The fold enrichment of `S14V` is reported as 12.3 fold.
For `I13S`, the fold enrichment was 0.559 fold.
The fold enrichment of `A2V` is reported as 6.66 fold.
`Y3S` has a fold enrichment of 5.84 fold.
With `S6R` the fold enrichment was 4.7 fold.
`M8E` gave a fold enrichment of 1.05 fold.
The fold enrichment of `A2D` is reported as 8.72 fold.
For `S14M`, the fold enrichment was 9.62 fold.

Block 2
SMILES: CCOc1cc2ncnc(Nc3cccc(Br)c3)c2cc1OCC
Observed: enzyme activity
Mode: inhibitor
Tested at: 0.5 µM
Baseline: control
The remaining activity was 99.5% (Serine/threonine-protein kinase DCLK2 (DCLK2, Homo sapiens, UniProt Q8N568)).
Discoidin domain-containing receptor 2 (DDR2, Homo sapiens, UniProt Q16832) — remaining activity: 100%.
Misshapen-like kinase 1 (MINK1, Homo sapiens, UniProt Q8N4C8) — remaining activity: 77.8%.
For Cyclin-dependent kinase 9, with cyclin K (CDK9, Homo sapiens, UniProt P50750): remaining activity read 102%.

Block 3
Target: Prothrombin, mature alpha-thrombin (F2, Homo sapiens, UniProt P00734)
Method: aptamer microarray, sandwich
Form: DNA with 2'F-ANA
Medium: in vitro
Tested at: 200 nM
Notes: whole 15-mer aptamer, many near background
With: Cy3 exosite-II aptamer, 400 nM
Reading: higher = stronger binding
Oligonucleotide: GGTTGGTGTGGTTGG
Under “mean fluorescence intensity”, `2'F-ANA at 2 4 5 7 11 14` is recorded as 56.2 a.u.
`2'F-ANA at 1 4 5 7 8 9 14 15` — result for “mean fluorescence intensity”: 121 a.u.
Under “mean fluorescence intensity”, `2'F-ANA at 2 3 4 5 8 10 11 12 13 14` is recorded as 72.3 a.u.
`2'F-ANA at 1 6 8 9 11 15`: “mean fluorescence intensity” 150 a.u.
Under “mean fluorescence intensity”, `2'F-ANA at 2 3 5 9 10 11 12 14 15` is recorded as 70.2 a.u.
For `2'F-ANA at 6 7 8 10 11 12 14 15`, “mean fluorescence intensity” read 96.4 a.u.
For `2'F-ANA at 1 2 3 5 6 8 11 12 13`, “mean fluorescence intensity” read 78.6 a.u.
For `2'F-ANA at 1 3 5 6 13`, “mean fluorescence intensity” read 50.5 a.u.

Further values, each from its own experiment
Observed: binding
Method: radioligand binding
Tested at: 10 µM
The inhibition of `CCCOc1ccc([C@H]2[C@H](C(=O)O)[C@@H](c3ccc4c(c3)OCO4)CN2CC(=O)Nc2c(CC)cccc2CC)cc1` is reported as 12.8% (5-hydroxytryptamine receptor 2B (HTR2B, Homo sapiens, UniProt P41595)).
With `CCC(=O)N[C@H]1CC[C@@H](C(=O)N(C)c2ccc(-c3nc4ccccc4o3)cc2)C1` the inhibition was 1.55% (Beta-2 adrenergic receptor (ADRB2, Homo sapiens, UniProt P07550)).

Excerpt of the above (further values, each from its own experiment):
With `CCC(=O)N[C@H]1CC[C@@H](C(=O)N(C)c2ccc(-c3nc4ccccc4o3)cc2)C1` the inhibition was 1.55% (Beta-2 adrenergic receptor (ADRB2, Homo sapiens, UniProt P07550)).
The inhibition of `CCCOc1ccc([C@H]2[C@H](C(=O)O)[C@@H](c3ccc4c(c3)OCO4)CN2CC(=O)Nc2c(CC)cccc2CC)cc1` is reported as 12.8% (5-hydroxytryptamine receptor 2B (HTR2B, Homo sapiens, UniProt P41595)).
